Experimental data of several laboratories.
Numbered parts are unrelated; each lists some results of a single study.

Set 1
Target: Fragile X messenger ribonucleoprotein 1, C-terminal low-complexity region (Fmr1, Mus musculus, UniProt P35922)
Method: RNA Bind-n-Seq
Form: RNA
Matrix: in vitro
Tested at: 200 nM
Notes: whole 134-nt RNA, ends assumed
With: 150 mM KCl
Reference: input library
Direction: higher = stronger binding
Oligonucleotide	log2 enrichment
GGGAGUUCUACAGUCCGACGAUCCUCAAGUCCUGUGCUACACAUCGUAUGUACCGAAUCGGGUGGGUGGGAAAGGGAAAGUAUUAUGUUACGCCGUUCGGAUCUGCACUUCCAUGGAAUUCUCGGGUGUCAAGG	1.07
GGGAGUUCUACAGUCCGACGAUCUGGCCCUGGUGGCAUGCGGGGAGGAAGAGGUGGCCUCAUGGAUCGUAGUGGUCCCGGUGGAAUGUUCAGAGGUGGCCGUGGUGGAGACAGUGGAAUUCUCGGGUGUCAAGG	0.177
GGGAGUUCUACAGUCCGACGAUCUGGAUCUUGGAGGGACCAACUUCCGUGUGCUUUGGGUGAAAGUAACGGACAAUGGGCUCCAGAAGGUGGAGAUGGAGAAUCAGAUCUAUGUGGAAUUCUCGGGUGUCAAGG	-1.48
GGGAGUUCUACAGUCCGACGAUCGUCCUGUGCUACACAUCGUAUGUACCGAAUCGGGGUUUGGGGAAAGGGGUUUUUGGGGAAAGUAUUAUGUUACGCCGUUCGGAUCUGCACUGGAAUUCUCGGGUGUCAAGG	0.433
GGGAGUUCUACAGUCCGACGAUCAGUCCUGUGCUACACAUCGUAUGUACCGAAUCAAACCCCCCCAAAUUUAAACCCAAAAAAGUAUUAUGUUACGCCGUUCGGAUCUGCACUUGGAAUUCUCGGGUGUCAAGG	-0.0612
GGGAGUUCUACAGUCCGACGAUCUGGGAGGUGGAUUUUGUUUAUUUUUUUAGCUCUUUUCCAGGGGUGGGAAUUUUUUUUUAAUAUGUGUCAUGAAUAAAGUUGUUUUUGAAAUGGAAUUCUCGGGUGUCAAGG	0.248
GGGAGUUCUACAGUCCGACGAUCCACAGACAACACGCACCCACACAGACACAGAGGGAAGGGGUUGGGAUGGGGACAGGGUGCACAGCAGGGCGGGGUAGGACCCCAGCCCGUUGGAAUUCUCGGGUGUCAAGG	1.33
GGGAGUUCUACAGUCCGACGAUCUUGCAGGAGCCGCCGCGCCUCGGCCUAGCAUGUCGGAAGCGGGCGAGGAGCAGCCCAUGGAGACGACGGGCGCCACCGAGAACGGACAUGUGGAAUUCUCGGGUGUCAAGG	-0.0923
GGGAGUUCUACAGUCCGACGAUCCACAGACAACACGCACCCACACAGACACAGAGGGAAGGGGUUGGGAUGGGGACAGGGUGCACAGCAGGGCAGGGUAGGACCCCAGCCCCUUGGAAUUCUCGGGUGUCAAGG	1.25
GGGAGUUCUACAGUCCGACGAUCCUCAAGUCCUGUGCUACACAUCGUAUGUACCGAAUCGGGUUUGGGUGGGAGGGAAAGUAUUAUGUUACGCCGUUCGGAUCUGCACUUCCAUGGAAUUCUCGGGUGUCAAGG	1.32

Set 2
Target: Sal-like protein 4, full length isoform B (SALL4, Homo sapiens, UniProt Q9UJQ4-2, residues 1-616)
Method: universal PBM
Form: double-stranded DNA, one strand shown
Matrix: in vitro
Tested at: not given
Notes: 8-mer, flanks averaged, mean of replicates
Direction: higher = stronger binding
Target sequence (chain): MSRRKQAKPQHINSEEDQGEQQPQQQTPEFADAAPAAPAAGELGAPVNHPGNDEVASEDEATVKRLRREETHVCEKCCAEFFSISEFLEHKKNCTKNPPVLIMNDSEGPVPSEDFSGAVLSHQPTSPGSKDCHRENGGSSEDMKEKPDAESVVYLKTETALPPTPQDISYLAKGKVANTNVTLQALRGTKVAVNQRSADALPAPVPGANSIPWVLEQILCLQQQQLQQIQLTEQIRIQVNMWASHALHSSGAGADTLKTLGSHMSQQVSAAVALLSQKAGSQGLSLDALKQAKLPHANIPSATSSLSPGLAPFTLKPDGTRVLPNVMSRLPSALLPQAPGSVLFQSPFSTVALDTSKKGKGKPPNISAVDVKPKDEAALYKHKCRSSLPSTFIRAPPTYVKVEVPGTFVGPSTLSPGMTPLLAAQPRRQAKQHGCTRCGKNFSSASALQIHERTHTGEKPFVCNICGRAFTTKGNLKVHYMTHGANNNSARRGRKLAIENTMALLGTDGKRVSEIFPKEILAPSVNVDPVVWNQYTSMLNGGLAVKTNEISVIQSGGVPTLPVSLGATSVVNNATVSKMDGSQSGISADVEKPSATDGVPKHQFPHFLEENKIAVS
Oligonucleotide	E-score
AAAGGAGC	-0.157
CTAGGTAA	0.0559
CCTATGTC	-0.00916
GAGGTCCA	-0.178
AATGGCGA	0.125
AAGTGCCG	-0.143
GTTGAAGA	0.184
ATATGCAG	0.198
GGCCCACA	-0.165
CTGGCGGC	-0.287
CCTACACC	0.0668
AAGCACAT	0.0774
ACAAACTC	0.0247
GCCGCGCC	-0.3
GCAGACCA	-0.252
ACAATCAG	0.152
AGGGTTAC	-0.206
GTATGTTA	0.271
AGATCTAA	-0.00389
ATTCGGCC	-0.213
CCGAATCG	-0.147
GGGCGGAC	-0.418
CATTGCTC	-0.181
TACTCGAA	0.193
CCTAATCG	-0.0317

Set 3
Target: RING finger protein unkempt homolog, zinc fingers 1-6, GST-SBP tag (UNK, Homo sapiens, UniProt Q9C0B0, residues 30-357)
Sequence of UniProt Q9C0B0 (30-357, looked up): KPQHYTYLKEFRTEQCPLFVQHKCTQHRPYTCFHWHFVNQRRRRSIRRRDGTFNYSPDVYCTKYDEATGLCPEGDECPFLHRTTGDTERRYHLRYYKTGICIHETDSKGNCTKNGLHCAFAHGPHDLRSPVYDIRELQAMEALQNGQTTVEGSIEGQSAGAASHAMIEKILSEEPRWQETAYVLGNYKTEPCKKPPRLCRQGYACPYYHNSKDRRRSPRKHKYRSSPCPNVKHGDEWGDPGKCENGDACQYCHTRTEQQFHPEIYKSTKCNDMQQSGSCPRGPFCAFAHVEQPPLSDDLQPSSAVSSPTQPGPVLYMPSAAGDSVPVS
Method: RNA Bind-n-Seq
Form: RNA
Matrix: in vitro
Tested at: not given
Notes: RNA with constant flanks, human and mouse sites, ends assumed
Reference: input RNA pool
Direction: higher = stronger binding
Oligonucleotide	bound/input enrichment [ratio]
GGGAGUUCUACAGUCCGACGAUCUUUGCCCUUUCAAACCUUAUUCAGGUUGGGACUCAUUUCUUUCUGGUGGAUCACAGCUACCCAGAUGUGUAGAUUGAUCUCUAUGUUCUAUAGAGAAAUCCUUUUCUUUCAUCUUCAGCACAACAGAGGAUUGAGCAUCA	0.115
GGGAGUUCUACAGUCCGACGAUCAAUGCUUGUUGGGUGCAUAAACAUUUCACAGAGGAUAUCCAGACACGUCAGUAUAGGUCCAUAGAGGUUUUAAUAGGAGCAGGCUACAGCACACCUGCAGACAUUUGGAGUACAGCUUGCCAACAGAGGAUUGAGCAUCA	4.43
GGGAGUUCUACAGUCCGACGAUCAGUCAUGAACCGGAGUUUGACUAUUUGAAAAGUCUAGAAAUUGAGGAAAAAAUUAAUAAAAUUAGGUGGUUACCACAACAGAAUGCUGCUCAUUUUCUACUGUCUACAAAUGAUAAAACUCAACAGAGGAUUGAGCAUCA	79.8
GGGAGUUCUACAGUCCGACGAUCAAUCAGUCAAAAACGACACCUUUUAAAGAUUGCAAAGUAUUGAAACAAAGACCAAGAUUUGUAGCUCUGAAGAAACAACCAUCCUAUAUUGGAGGACAUGAGGGCUUAGAACUGAGAGACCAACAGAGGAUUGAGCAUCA	0.279
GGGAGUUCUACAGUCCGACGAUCAUAAAUGUUUUUCUUAAUUAUUAAGAAGUGUUACCUUAUUAAAAUGACCACCAUUCUAAACCAUUUUUCAGUGGUCUGGAUACGAAGUUUACAGUUUCAUACCAACUAUCUAAAACCUAACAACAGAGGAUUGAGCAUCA	0.651
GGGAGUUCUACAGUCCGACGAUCGAUAAUGACCAUCUUCAACUUUCUGCAGAAGUCGUGGAAGGUAGUAGAUACCAGGAAUCAUUAGGCAAUACAGUAUUUGAGUUGGAAAACAGAGAGGCAGAGGCAUACACUGGUCUUUCACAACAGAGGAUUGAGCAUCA	0.973
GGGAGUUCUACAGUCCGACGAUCGGCGUGCUCUGCGUGCUGUCCGCGGACAAGAACACGACCCAGCACCCGAACGUGACGACUUUAGCGCCCAUCUCCAACGUAACCUCGGCGCCGGUGACGUCCCUCCCGCUGGUCACCACUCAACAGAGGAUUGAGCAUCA	0.126
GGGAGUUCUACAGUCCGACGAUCGUUCGGGGUAUUUUGUUGGGUGCUUUAGGAGGAGAGAAGAGGAGGACCUUGUCCUCAUCCUAGUAGUUUGGCUGGACUUGUACUGGCCGUUGGAAACCCCCAAGUACAUUUCCGUGUGGACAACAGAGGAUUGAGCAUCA	0.572

Set 4
Target: RNA binding protein fox-1 homolog 2, RRM domain, GST-SBP tag (RBFOX2, Homo sapiens, UniProt O43251-10, residues 100-194)
Method: RNA Bind-n-Seq
Form: RNA
Matrix: in vitro
Tested at: 365 nM
Notes: natural RNA segment, single round, ends assumed
Reference: no-protein control
Direction: higher = stronger binding
Construct (chain): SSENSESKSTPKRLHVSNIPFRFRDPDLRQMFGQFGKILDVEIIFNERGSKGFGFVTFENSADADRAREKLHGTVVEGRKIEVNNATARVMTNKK
Oligonucleotide	RBNS enrichment (R)
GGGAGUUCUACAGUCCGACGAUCACCUCAUUCUGGUUUCAGUGUUACUUGUGCGCAUGUGUGUGUGUGUCUGCAGAUGGAAAUCAUUCCCCACUGGCAGUAUCUGCUCGGGUUCAACGCUCUGUCCUCUGAGGUGGAAUUCUCGGGUGCCAA	4.09
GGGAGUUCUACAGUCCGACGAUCUUCUAGGGGCAAAAGCCUUUUGUAGAAACCUGCACACUGCAUUCCAUCUGGGUUUUAAGUUCAGAUGUGAACAUUUUUUAGUGCUUCUUUUUCUUUUACUUAAUGAACAUUGGAAUUCUCGGGUGCCAA	0.311
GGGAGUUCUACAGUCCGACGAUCGGAAGCGUCUUGGGGAGGGUGGUAGAAGCACAAAAGAAUCACAGAAUUAUUUUCUAAGCAAAAUAACACUUGUUUGUUUAUGGCCCAUGGAUCAUAGCUUCCUGUCCCCAUGGAAUUCUCGGGUGCCAA	0.528
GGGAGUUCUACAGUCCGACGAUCUUGUUCUUUAAUAUGCUGUCCAUGGCUGAGUUUAUUAGUACAUGGGCUUAGUGACCACAAAAUAUUUUAUUAAGAAACUGUUUCAAAAAUAAAUUUGCACUGUUCAUUUUUGGAAUUCUCGGGUGCCAA	2.03
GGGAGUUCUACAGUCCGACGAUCUGCCAGUGAAGCCUCCAACCCUAAGCCACUGGGACGGUGGCCAGAGAUGCCAGCAGCCUCUGUCGCCCUUAGUCAUAUAACCAAAAUCCAGACCUUAUCCACAACCCGGGUGGAAUUCUCGGGUGCCAA	0.63
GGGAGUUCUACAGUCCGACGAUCAGCCCUUUUAAAUUUUUUUAUUAUAAACAAAAUGAAGAGAACCCUGUGAGCCUGGUCCUUCUAGCAACCCUCAGUUAAGAUCCUGAGGGACAGGUGCAGCAGCAGCUGGCUGGAAUUCUCGGGUGCCAA	0.413
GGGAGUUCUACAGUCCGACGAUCAACUCAUUUGCUCACUCCUUGACAGCAAAGCCCAGUACGUACAAUUGUGUUGGGUGUGGGUGGUCUCCAAGGCCACGCUGCUCUCUGAAUUGAUUUUUUGAGUUUUGUUUUGGAAUUCUCGGGUGCCAA	0.26
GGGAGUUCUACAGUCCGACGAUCUUUGUUUAUACUUUAAUUACAAAACUAUUUUUUUUAACUUCCUACAUUGUUUUCCUACUUUUUUGUUGUUGGAUUAUGUAACUUUUCCUAAGUUCAGAAGUCUUAAGUGUUGGAAUUCUCGGGUGCCAA	1.11
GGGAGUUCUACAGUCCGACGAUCUCAGGACAGUGGUGGAGCUGGGUCUUGAACCCCAGUCUGCACCUAAAAAACUAAAGGAAAUGGAUUUUUUUUUUUUUUUUUGAGACGGAGACUCACUCUGUUGCCCAGACUGGAAUUCUCGGGUGCCAA	0.303

Some of these lines once more (set 2):
Oligonucleotide	E-score
AAGTGCCG	-0.143
GTTGAAGA	0.184
ATATGCAG	0.198
GGCCCACA	-0.165
CTGGCGGC	-0.287
CCTACACC	0.0668
AAGCACAT	0.0774
